Values quoted from earlier work as cited in several papers.
Protocols differ between the studies behind these lines. ± gives the spread as reported.

C=C(C)[C@@H]1CCC(CO)=C[C@H]1c1c(O)cc(CCCCC)cc1O — decrease in Cmax (healthy volunteers; dose not given, steady state, with: stiripentol): 29%
CN[C@H](CC(C)C)C(=O)N[C@H]1C(=O)N[C@@H](CC(N)=O)C(=O)N[C@H]2C(=O)N[C@H]3C(=O)N[C@H](C(=O)N[C@H](C(=O)O)c4cc(O)cc(O)c4-c4cc3ccc4O)[C@H](O)c3ccc(c(Cl)c3)Oc3cc2cc(c3O[C@@H]2O[C@H](CO)[C@@H](O)[C@H](O)[C@H]2O[C@H]2C[C@](C)(NCc3ccc(-c4ccc(Cl)cc4)cc3)[C@H](O)[C@H](C)O2)Oc2ccc(cc2Cl)[C@H]1O — AUC (mouse, plasma; intravenous, 75 mg/kg (MTD)): 575 µg·h/mL
CN1CCN([C@@H](c2ccccc2)c2ccc(Cl)cc2)CC1 — half-life (mouse, liver; intraperitoneal, 50 mg/kg): 120 min
CN(CCCN)[C@H](C(=O)O)[C@H](O[C@@H]1O[C@H](CN)[C@@H](O)[C@H]1O)[C@H]1O[C@@H](n2ccc(=O)[nH]c2=O)[C@H](O)[C@@H]1O — LD50 (mouse; intravenous): > 500 mg/kg
[O-][N+]1=C(c2ccc(Cl)cc2)C2=NCCCN2c2ccccc21 — logP (octanol/PBS): 0.836
CC(C)C[C@H]1NC(=O)[C@H](NC(=O)CN)CSSC[C@H]2NC(=O)[C@H]3CSSC[C@H](C(=O)N[C@H](CC(N)=O)C(=O)N[C@H](Cc4ccccc4)C(=O)N[C@H](CO)C(=O)N[C@H](Cc4ccccc4)C(N)=O)NC(=O)[C@@H](CC(C)C)NC(=O)[C@@H](CCCCN)NC(=O)[C@@H](Cc4ccccc4)NC(=O)[C@@H](CC(C)C)NC(=O)[C@@H](CCCCN)NC(=O)[C@@H](CO)NC(=O)[C@@H](CSSC[C@@H](NC(=O)[C@@H](CCCCN)NC(=O)[C@@H](Cc4c[nH]c5ccccc45)NC(=O)[C@@H](Cc4c[nH]c5ccccc45)NC(=O)[C@@H](Cc4ccccc4)NC(=O)[C@@H](CCC(=O)O)NC1=O)C(=O)N[C@H](CC(N)=O)C(=O)N1CCC[C@@H]1C(=O)N[C@H](CC(N)=O)C(=O)N[C@H](CC(=O)O)C(=O)N[C@H](CC(=O)O)C(=O)N[C@H](CCCCN)C(=O)N3)NC(=O)[C@@H](CCCCN)NC(=O)[C@@H](CC(C)C)NC(=O)[C@@H](CCCCN)NC(=O)[C@H]1CCCN1C(=O)[C@@H](CCCNC(=N)N)NC2=O — concentration (C57BL/6J mice, cardiac muscle; subcutaneous, 50 mg/kg, within 24 h): ~1000 nM
NCCCC[C@H](NC(=O)[C@H](Cc1ccccc1)NC(=O)[C@@H](CCCN=C(N)N)NC(=O)[C@@H](N)Cc1ccc(O)cc1)C(N)=O — brain uptake (rat, Sprague-Dawley, brain): 0.02 % injected dose/g
CCOC(=O)CNC(=O)[C@@H]1C[C@H](C)CC[C@H]1C(C)C — NOAEL (rat Crl:CD(SD); oral gavage, 90 days): 75 mg/kg/day
C[C@H](Nc1c(-c2c(F)cc(OCCCN(C)C)cc2F)c(Cl)nc2ncnn12)C(F)(F)F — brain-to-plasma AUC ratio (mice): 0.37
CC(=O)N1CC2(CCN(C(=O)[C@@H](CCCCN)NC(=O)[C@@H](CC(C)C)NC(=O)[C@@H](Cc3ccccc3)NC(=O)[C@H](N)Cc3ccccc3)CC2)C1 — respiratory rate (whole body plethysmography; mouse; 2.0 mg/kg): no effect
COC1CC(OC2CCC3(C)C4CCC5(C)C(C6=CC(=O)OC6)CCC5(O)C4CCC3(O)C2)OC(C)C1OC1OC(CO)C(O)C(O)C1O (stereo not drawn) — total excretion (refers to: compound and hydrolysate; rat, urine and faeces): < 14%
COC(=O)CC[C@@H](C)C1CCC2C3C(CC[C@@]21C)[C@@]1(C)CC[C@@H](n2cc(CO[C@H]4O[C@@H]5O[C@@]6(C)CCC7[C@H](C)CC[C@@H]([C@H]4C)[C@]75OO6)nn2)CC1C[C@@H]3O (stereo partly drawn) — stability (cell culture medium; up to 24 h): stable
CN1CC[C@]2(C)c3cc(OC(=O)Nc4ccccc4)ccc3NC12 (single isomer, unassigned; (+)) — Cmax (human, plasma; 40 mg Posiphen): 31 ng/mL
CC1=CC(C)=[N+]2C1=Cc1ccc(CCC(=O)NCC3C[NH][Pt]([Cl])([Cl])[NH]3)n1[B-]2(F)F (stereo not drawn) — logP (octanol/water): 0.58
COc1cc(C)c(S(=O)(=O)NC(=N)NCCC[C@@H](NC(=O)[C@@H](CCC(N)=O)NC(=O)[C@@H](Cc2c[nH]c3ccccc23)NC(=O)[C@@H](CCCCN)NC(=O)[C@@H](Cc2ccccc2)NC(=O)[C@H](N)Cc2ccccc2)C(=O)N[C@H](CCCNC(=N)N)C(=O)N[C@H](CCCNC(=N)N)C(N)=O)c(C)c1C — toxicity (mouse; oral, NG): not toxic
CC[C@H](C)[C@H](NC(=O)[C@H](CCCCN)NC(=O)[C@H](CCCCN)NC(=O)[C@H](Cc1ccccc1)NC(=O)[C@H](CC(C)C)NC(=O)[C@H](CCCCN)NC(=O)[C@H](Cc1c[nH]c2ccccc12)NC(=O)[C@H](CCCCN)NC(C)=O)C(=O)NCC(=O)N[C@@H](C)C(=O)N[C@H](C(=O)N[C@@H](CC(C)C)C(=O)N[C@@H](CCCCN)C(=O)N[C@H](C(=O)N[C@@H](CC(C)C)C(N)=O)C(C)C)C(C)C — alpha-helical content (membranes): ~60%
CNC(=O)N[C@H]1CC[C@H](CCN2CCN(c3cccc(Cl)c3Cl)CC2)CC1 — exposure relative to parent drug (human, plasma): 30 to 40%
COc1ccc(CCN2CCN(C/C=C/[125I])CC2)cc1OC — half-life (refers to: clearance; mouse, whole brain): 36 min
CCCCCCCC(=O)OC[C@H](NC(=O)[C@H](CO)NC(=O)CN)C(=O)N[C@@H](Cc1ccccc1)C(=O)N[C@@H](CC(C)C)C(=O)N[C@@H](CO)C(=O)N1CCC[C@H]1C(=O)N[C@@H](CCC(=O)O)C(=O)N[C@@H](Cc1cnc[nH]1)C(=O)N[C@@H](CCC(N)=O)C(=O)N[C@@H](CCCNC(=N)N)C(=O)N[C@H](C(=O)N[C@@H](CCC(N)=O)C(=O)N[C@@H](CCC(N)=O)C(=O)N[C@@H](CCCNC(=N)N)C(=O)N[C@@H](CCCCN)C(=O)N[C@@H](CCC(=O)O)C(=O)N[C@@H](CO)C(=O)N[C@@H](CCCCN)C(=O)N[C@@H](CCCCN)C(=O)N1CCC[C@H]1C(=O)N1CCC[C@H]1C(=O)N[C@@H](C)C(=O)N[C@@H](CCCCN)C(=O)N[C@@H](CC(C)C)C(=O)N[C@@H](CCC(N)=O)C(=O)N1CCC[C@H]1C(=O)N[C@@H](CCCNC(=N)N)C(=O)O)C(C)C — half-life (refers to: total ghrelin; injection, 1 µg/kg): 36 ± 2.4 min
CC1(O)CC23CC(O)C4(O)C(C5OC5C4(C)C)C(C)(O)C2CCC1C3O (stereo not drawn) — LD50 (mouse; oral): 7.61 mg/kg
Br.Br.Br.CNC1C(O)C(NC)C2OC3(O)C(OC(C)C[C@H]3NC(=O)Cc3ccccn3)OC2C1O (stereo partly drawn) — half-life (mouse liver microsomes): > 600 min
CC[C@H](C)C(=O)N1CCC(NC(=O)Nc2ccc(OC(F)(F)F)c(F)c2)CC1 — oral bioavailability (dog; oral): ~60%
COc1ccc(C2=[N+]([O-])c3ccccc3N3CCN=C23)cc1 — logP (octanol/PBS): 1.25
COC[C@@H](NC(C)=O)C(=O)NCc1ccc(OCc2ccccc2F)cc1 — TD50 (behavioural toxicity; rat; oral): > 500 mg/kg
CN1CCN(C(=O)N(CCCCCCC(=O)NO)c2ccc(-c3ccc4cnn(C)c4c3)cc2)CC1 — safety and tolerability (lymphoma and myeloma patients; dose not given, phase I): not toxic
CC/C=C\C/C=C\C/C=C\C/C=C\CC/C=C/CSCC(=O)C(F)(F)F — tolerability (human, plaque psoriasis; topical, up to 5%): not toxic
OC1C=Cc2c(cc3ccc4cccc5c6ccccc6c2c3c45)C1O (stereo not drawn) — CLint (human liver microsomes; phase I): 540 µL/min/mg

A few entries again:
COC[C@@H](NC(C)=O)C(=O)NCc1ccc(OCc2ccccc2F)cc1 — TD50 (behavioural toxicity; rat; oral): > 500 mg/kg
CC(C)C[C@H]1NC(=O)[C@H](NC(=O)CN)CSSC[C@H]2NC(=O)[C@H]3CSSC[C@H](C(=O)N[C@H](CC(N)=O)C(=O)N[C@H](Cc4ccccc4)C(=O)N[C@H](CO)C(=O)N[C@H](Cc4ccccc4)C(N)=O)NC(=O)[C@@H](CC(C)C)NC(=O)[C@@H](CCCCN)NC(=O)[C@@H](Cc4ccccc4)NC(=O)[C@@H](CC(C)C)NC(=O)[C@@H](CCCCN)NC(=O)[C@@H](CO)NC(=O)[C@@H](CSSC[C@@H](NC(=O)[C@@H](CCCCN)NC(=O)[C@@H](Cc4c[nH]c5ccccc45)NC(=O)[C@@H](Cc4c[nH]c5ccccc45)NC(=O)[C@@H](Cc4ccccc4)NC(=O)[C@@H](CCC(=O)O)NC1=O)C(=O)N[C@H](CC(N)=O)C(=O)N1CCC[C@@H]1C(=O)N[C@H](CC(N)=O)C(=O)N[C@H](CC(=O)O)C(=O)N[C@H](CC(=O)O)C(=O)N[C@H](CCCCN)C(=O)N3)NC(=O)[C@@H](CCCCN)NC(=O)[C@@H](CC(C)C)NC(=O)[C@@H](CCCCN)NC(=O)[C@H]1CCCN1C(=O)[C@@H](CCCNC(=N)N)NC2=O — concentration (C57BL/6J mice, cardiac muscle; subcutaneous, 50 mg/kg, within 24 h): ~1000 nM
